Published values gathered from unrelated publications.
Lines come from different studies, so protocols differ. ± gives the spread as reported.

N=C(N)NCCC[C@@H]1NC(=O)[C@H](CCCCNC(=O)CNC(=O)CNC(=O)CNC(=O)CC[C@H](NC(=O)CCOCCOCCOCCOCCNC(=O)CC[C@H](NC(=O)CN2CCN(CC(=O)O)CCN(CC(=O)O)CCN(CC(=O)O)CC2)C(=O)NCCOCCOCCOCCOCCC(=O)N[C@@H](CCC(=O)NCC(=O)NCC(=O)NCC(=O)NCCCC[C@@H]2NC(=O)[C@@H](Cc3ccccc3)NC(=O)[C@H](CC(=O)O)NC(=O)CNC(=O)[C@H](CCCNC(=N)N)NC2=O)C(=O)NCC(=O)NCC(=O)NCC(=O)NCCCC[C@@H]2NC(=O)[C@@H](Cc3ccccc3)NC(=O)[C@H](CC(=O)O)NC(=O)CNC(=O)[C@H](CCCNC(=N)N)NC2=O)C(=O)NCC(=O)NCC(=O)NCC(=O)NCCCC[C@@H]2NC(=O)[C@@H](Cc3ccccc3)NC(=O)[C@H](CC(=O)O)NC(=O)CNC(=O)[C@H](CCCNC(=N)N)NC2=O)NC(=O)[C@@H](Cc2ccccc2)NC(=O)[C@H](CC(=O)O)NC(=O)CNC1=O [indium-111 labelled]
tissue uptake (female athymic nude mice, heart; intravenous, 3 µCi, 72 h, U-87 MG glioma xenograft): 0.13 ± 0.01 %ID/g

CCCCCCCCOCc1cn(CC2=CC[C@@H]3C(C(=O)OC)=CO[C@@H](OC(C)=O)[C@H]23)nn1
viability (SK-N-SH; neuroprotection, MTT; 0.075 µM, 24 h, with: 250 µM H2O2): 56.1 ± 0.5%

Cc1cccc(Nc2c3c(nc4ccccc24)CCC(C)C3)n1 (stereo not drawn)
viability (SH-SY5Y; MTT; 50 µM, 1 h pretreatment, 10% FBS, with: H2O2): 67.8 ± 5.28%

Cc1cc(C)c(N2CCN(c3c(C)cc(C)cc3C)C2=[Se])c(C)c1.[Cl][Au]
IC50 (A2780; cell growth or viability; 72 h, 3D culture): 8.2 µM

[N]#[Os]([Cl])([Cl])[Cl].c1cnc2c(c1)ccc1cccnc12
DNA damage markers (A2780; immunoblot, measured: γH2AX, CHK1, CHK2, p53 Ser15; concentration not given, 72 h): increased

CN[C@](C)(C[18F])C(=O)O
tracer uptake (DU-145 tumour model; host not given, lung; 2 h, tumour-bearing): 1.3 %ID/g

CCCC[C@H](NC(=O)CNC(=O)CNC(=O)c1ccc(NN)nc1)C(=O)N[C@H]1CC(=O)NCCCC[C@@H](C(N)=O)NC(=O)[C@H](Cc2c[nH]c3ccccc23)NC(=O)[C@H](CCCNC(=N)N)NC(=O)[C@@H](Cc2ccccc2)NC(=O)[C@H](Cc2c[nH]cn2)NC1=O [technetium-99m labelled]
tissue uptake ratio (C57 mouse, B16/F1 melanoma-bearing; intravenous, 24 h; reference: tumour over liver): 28.4

CCN(Cc1ccccc1)C(=O)CCc1nc(CN2CCN(C(=O)Cc3ccc(OC)c(OC)c3)CC2)no1
activation V1/2 (KCNQ2 (Homo sapiens, UniProt O43526); potassium current, whole-cell patch clamp; CHO, stable; 3 µM): -49.9 ± 14.6 mV

CSCC[C@H](NC(=O)[C@H](CC(C)C)NC(=O)[C@H](Cc1c[nH]cn1)NC(=O)CNC(=O)[C@@H](NC(=O)[C@H](C)NC(=O)[C@H](Cc1c[nH]c2ccccc12)NC(=O)[C@H](CCC(N)=O)NC(=O)CCCCCNC(=O)CCN(CCNC(=O)c1ccc(F)cc1)CCC(=O)NCCCC[C@@H]1NC(=O)[C@@H](Cc2ccc(O)cc2)NC(=O)[C@H](CC(=O)O)NC(=O)CNC(=O)[C@H](CCCNC(=N)N)NC1=O)C(C)C)C(N)=O [fluorine-18 labelled]
efflux (PC-3; measured: radioactivity; serum-free medium; 2 h): ~50%

COC(=O)C1=CO[C@@H](OC(C)=O)[C@@H]2C(Cn3cc(-c4ccc(F)cc4)nn3)=CC[C@H]12
viability (SK-N-SH; neuroprotection, MTT; 0.6 µM, 24 h, with: 250 µM H2O2): 52.3 ± 0.9%

C=CCc1cc(OC)c(OC)c(OC)c1OC
GI50 (SK-OV-3; cell growth or viability, MTT; 72 h): > 250 µM

COc1cc(C(=O)NCCOCCOCCOCCNC(=O)c2ccc([18F])nc2)ccc1NC(=O)C1NC(CC(C)(C)C)C(C#N)(c2ccc(Cl)cc2F)C1c1cccc(Cl)c1F (stereo not drawn)
uptake (SJSA-1; reference: added dose): ~70%

CC(C)CC(O)(CC(C)C)c1cn(C(=O)N2CCCC2)nn1
SILAC ratio (mouse T-cells; N-terminal labeled proteins, N-terminal enrichment proteomics, measured: NDUFV2; 1 nM, 6 h; reference: DMSO): 3.09 ± 0.52

CCC(C)C(=O)OC1C2C3(C)CCC(OC4CC(OC)C(OC5OC(C)C(O)C(OC)C5O)C(C)O4)CC3CCC23OC32CCC(C(C)=O)C2(C)C1OC(C)=O (stereo not drawn)
fold reversal of IC50 (MDA435/LCC6-MDR1; cell growth, MDR reversal, SRB; 10 µM, with: paclitaxel; reference: paclitaxel alone over combination): 22

CCCCCCCCCCCCCC(=O)NCC(=O)N[C@@H](CCCNC(=N)N)C(=O)N[C@@H](Cc1c[nH]c2ccccc12)C(=O)N[C@@H](CCCCN)C(=O)N[C@H](C(=O)N[C@@H](Cc1ccccc1)C(=O)N[C@@H](CCCCN)C(=O)N[C@@H](CCCCN)C(=O)N[C@H](C(=O)N[C@@H](CCC(=O)O)C(=O)N[C@@H](CCCCN)C(=O)N[C@H](C(=O)NCC(=O)N[C@@H](CCC(N)=O)C(=O)N[C@@H](CC(N)=O)C(=O)N[C@H](C(=O)N[C@@H](CCCNC(=N)N)C(=O)N[C@@H](CC(=O)O)C(=O)NCC(=O)N[C@H](C(=O)N[C@H](C(=O)N[C@@H](CCCCN)C(=O)N[C@@H](C)C(=O)NCC(=O)N1CCC[C@H]1C(=O)N[C@@H](C)C(=O)N[C@H](C(=O)N[C@@H](C)C(=O)N[C@H](C(=O)N[C@H](C(=O)NCC(=O)N[C@@H](CCC(N)=O)C(=O)N[C@@H](C)C(=O)N[C@@H](C)C(=O)N[C@H](C(=O)N[C@H](C(N)=O)[C@@H](C)CC)[C@@H](C)O)C(C)C)C(C)C)C(C)C)C(C)C)[C@@H](C)CC)[C@@H](C)CC)C(C)C)[C@@H](C)CC)[C@@H](C)CC
Bax/Bcl-2 ratio (Jurkat; western blot; concentration not given, 16 h): increased

N=C(N)NCCC[C@@H]1NC(=O)[C@H](CCCCNC(=O)CCOCCOCCOCCOCCNC(=O)CC[C@H](NC(=O)CCOCCOCCOCCOCCNC(=O)CC[C@H](NC(=O)CN2CCN(CC(=O)O)CCN(CC(=O)O)CCN(CC(=O)O)CC2)C(=O)NCCOCCOCCOCCOCCC(=O)N[C@@H](CCC(=O)NCCOCCOCCOCCOCCC(=O)NCCCC[C@@H]2NC(=O)[C@@H](Cc3ccccc3)NC(=O)[C@H](CC(=O)O)NC(=O)CNC(=O)[C@H](CCCNC(=N)N)NC2=O)C(=O)NCCOCCOCCOCCOCCC(=O)NCCCC[C@@H]2NC(=O)[C@@H](Cc3ccccc3)NC(=O)[C@H](CC(=O)O)NC(=O)CNC(=O)[C@H](CCCNC(=N)N)NC2=O)C(=O)NCCOCCOCCOCCOCCC(=O)NCCCC[C@@H]2NC(=O)[C@@H](Cc3ccccc3)NC(=O)[C@H](CC(=O)O)NC(=O)CNC(=O)[C@H](CCCNC(=N)N)NC2=O)NC(=O)[C@@H](Cc2ccccc2)NC(=O)[C@H](CC(=O)O)NC(=O)CNC1=O [indium-111 labelled]
tumour to tissue ratio (athymic nude mice, female, U-87 MG glioma xenograft, tumour and muscle; intravenous, 0.5 h; reference: tumour over muscle): 5.83 ± 0.8

O=C(O)CCC(NP(=O)(O)OCCC[C@@H](NC(=O)CCC(NC(=O)CCCCCNC(=O)c1ccc([18F])cc1)C(=O)O)C(=O)O)C(=O)O (stereo partly drawn)
cell uptake (CWR22Rv1; 1 h): 0.56 ± 0.05%

COC(=O)C1=CO[C@@H](OC(C)=O)[C@@H]2C(Cn3cc(CN(C)Cc4ccccc4)nn3)=CC[C@H]12
viability (SK-N-SH; neuroprotection, MTT; 0.15 µM, 24 h, with: 250 µM H2O2): 50.8 ± 0.6%

CCCCCCCCC(=O)NCc1ccc(O)c(OC)c1
IC50 (mAb 5-D8; antibody binding, indirect competitive ELISA; with: coating antigen hapten 1-OVA): 20.6 ng/mL

COC(=O)C1=CO[C@@H](OC(C)=O)[C@@H]2C(Cn3cc(CCCN4C(=O)c5ccccc5C4=O)nn3)=CC[C@H]12
viability (SK-N-SH; neuroprotection, MTT; 0.075 µM, 24 h, with: 250 µM H2O2): 50.9 ± 0.4%

C[C@H]1[C@H](OC(=O)CCC(=O)OCCc2ccc(O)cc2)O[C@@H]2O[C@@]3(C)CC[C@H]4[C@H](C)CC[C@@H]1[C@@]24OO3
IC50 (RPMI-7951; cell growth or viability, MTT; 24 h): 0.09 µM

Excerpt of the above:
N=C(N)NCCC[C@@H]1NC(=O)[C@H](CCCCNC(=O)CNC(=O)CNC(=O)CNC(=O)CC[C@H](NC(=O)CCOCCOCCOCCOCCNC(=O)CC[C@H](NC(=O)CN2CCN(CC(=O)O)CCN(CC(=O)O)CCN(CC(=O)O)CC2)C(=O)NCCOCCOCCOCCOCCC(=O)N[C@@H](CCC(=O)NCC(=O)NCC(=O)NCC(=O)NCCCC[C@@H]2NC(=O)[C@@H](Cc3ccccc3)NC(=O)[C@H](CC(=O)O)NC(=O)CNC(=O)[C@H](CCCNC(=N)N)NC2=O)C(=O)NCC(=O)NCC(=O)NCC(=O)NCCCC[C@@H]2NC(=O)[C@@H](Cc3ccccc3)NC(=O)[C@H](CC(=O)O)NC(=O)CNC(=O)[C@H](CCCNC(=N)N)NC2=O)C(=O)NCC(=O)NCC(=O)NCC(=O)NCCCC[C@@H]2NC(=O)[C@@H](Cc3ccccc3)NC(=O)[C@H](CC(=O)O)NC(=O)CNC(=O)[C@H](CCCNC(=N)N)NC2=O)NC(=O)[C@@H](Cc2ccccc2)NC(=O)[C@H](CC(=O)O)NC(=O)CNC1=O [indium-111 labelled]
tissue uptake (female athymic nude mice, heart; intravenous, 3 µCi, 72 h, U-87 MG glioma xenograft): 0.13 ± 0.01 %ID/g

CCCCCCCCOCc1cn(CC2=CC[C@@H]3C(C(=O)OC)=CO[C@@H](OC(C)=O)[C@H]23)nn1
viability (SK-N-SH; neuroprotection, MTT; 0.075 µM, 24 h, with: 250 µM H2O2): 56.1 ± 0.5%

Cc1cccc(Nc2c3c(nc4ccccc24)CCC(C)C3)n1 (stereo not drawn)
viability (SH-SY5Y; MTT; 50 µM, 1 h pretreatment, 10% FBS, with: H2O2): 67.8 ± 5.28%
